# Measurements collected from several papers.
# Numbered parts are unrelated; each lists some results of a single study. Changes are numbered by the printed parent chain.

# Set 1 — technique: universal PBM; molecule type: double-stranded DNA, one strand shown; matrix: in vitro; concentration: not given; direction: higher = stronger binding
# Target: Sal-like protein 4, full length isoform B (SALL4, Homo sapiens, UniProt Q9UJQ4-2, residues 1-616)
# Setting: 8-mer, flanks averaged, mean of replicates
Sequence,E-score
AGTTCCGA,-0.175
AGTAATAG,0.255
GGAGATCA,-0.15
GAGGTAAC,-0.0462
ACCAAACC,-0.071
ACGTCGTG,-0.00619
ACTTCATC,0.0825
GTGGGGAA,0.0247
AACTAAGC,-0.0307
ATCGGATC,-0.0673
CTTCAAGC,-0.195
AGGTGTGG,-0.243
AGGTAATC,0.192
CCATCTGC,-0.0242
AGCTGACG,-0.085
AACCTAAA,0.244
TCAAGAGA,0.0681
AAATGGGC,-0.0833
CGTGCGCC,-0.214
GCTCCGCC,-0.329
GAAGCTTA,0.116
AGACGCCC,-0.363
AACGCGAG,-0.0607

# Set 2 — target: CCNF, cyclin fold, Cln2 fusion (human); technique: yeast growth competition, sequencing; matrix: yeast; setting: strong parent motif; baseline: not given; direction: higher = stronger binding
# Starting sequence: SGO1 docking peptide (human); PLAKRALKYTDEK
Substitution,normalised enrichment score
PLAKRALKYTDAK [E12A],2.89
PLAKRALAYTDEK [K8A],1.47
PLAKAALKYTDEK [R5A],0.126
PAAKRALKYTDEK [L2A],5.24
ALAKRALKYTDEK [P1A],2.36
PLAKRALKYADEK [T10A],3.89

# Set 3 — technique: protein-binding microarray; molecule type: double-stranded DNA, one strand shown; matrix: in vitro; concentration: not given; direction: higher = stronger binding
# Target: TATA-box-binding protein 1 (TBP1, Arabidopsis thaliana, UniProt P28147, residues 1-200, full length assumed)
# Setting: k-mer, scored over probes, only values ≥0.25
# Target sequence (chain): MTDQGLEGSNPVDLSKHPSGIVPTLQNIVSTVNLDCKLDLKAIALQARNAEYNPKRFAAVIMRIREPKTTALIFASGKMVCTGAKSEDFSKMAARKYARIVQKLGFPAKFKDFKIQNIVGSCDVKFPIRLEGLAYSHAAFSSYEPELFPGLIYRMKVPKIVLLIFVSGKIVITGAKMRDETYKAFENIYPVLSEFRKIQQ
Sequence,E-score
ACTTATA,0.457
GGCTTAA,0.312
ATATTCA,0.36
AATAAGC,0.27
GGTTTTA,0.316
ATTTTAA,0.396
GATTATA,0.413
AATAAAA,0.412
ATATCCA,0.324
ATATTCC,0.32
TAAGTAA,0.314
TATAAGA,0.44
CAGTTTA,0.279
ATATAGC,0.391
TCATAAA,0.257
CCTTATA,0.437
TCTATAA,0.376
AAAAATA,0.317
TAGTATA,0.391
ATATGAC,0.325
ATTTACC,0.255
AATATAG,0.42
ATACCTA,0.311
ATATTGA,0.349
CCTTAAG,0.25

# Set 4 — technique: protein-binding microarray; molecule type: double-stranded DNA, one strand shown; matrix: in vitro; concentration: 2540 nM top; setting: 60-bp whole probe; added: salmon DNA 0.4 mg/ml; baseline: random background probes; direction: higher = stronger binding; all sequences stand within: GCCTAGCAC … GTCTTGATTCGCTTGACGCTGCTG
# Target: Interferon regulatory factor 3, full length, phosphomimetic (IRF3, Homo sapiens, UniProt Q14653, residues 1-427, S386D/S396D/S398D/S402D/T404D/S405D)
# Chain of UniProt Q14653 (whole entry, unmodified, looked up): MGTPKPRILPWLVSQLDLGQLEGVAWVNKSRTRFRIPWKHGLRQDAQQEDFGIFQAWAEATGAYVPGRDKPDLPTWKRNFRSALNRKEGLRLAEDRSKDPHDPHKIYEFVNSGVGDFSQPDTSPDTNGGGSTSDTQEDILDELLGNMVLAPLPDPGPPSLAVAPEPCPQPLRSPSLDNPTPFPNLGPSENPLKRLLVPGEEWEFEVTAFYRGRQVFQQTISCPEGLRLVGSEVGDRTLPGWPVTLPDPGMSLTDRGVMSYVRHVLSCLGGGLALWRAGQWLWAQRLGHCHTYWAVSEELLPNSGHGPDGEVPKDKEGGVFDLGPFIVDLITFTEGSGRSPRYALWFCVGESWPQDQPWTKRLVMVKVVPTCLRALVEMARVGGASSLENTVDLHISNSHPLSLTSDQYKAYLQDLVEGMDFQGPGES
Sequence,fitted relative affinity
CCCTGTTTCTACTGTCTGTTTGTGCTA,1.26 z-score
AGGATCCTGGGAGGGAGAGCGTGCTAG,-0.241 z-score
GACGATTTCGGGTATCGGGACGTGCTA,2.13 z-score
TTAGGACTGTTTCTCCTTTAGTGCTAG,1.64 z-score
TGCTTTGGACCCAGGGCTAAGTGCTAG,-0.786 z-score
TCATTTTTTTTTTTTTCACTGTGCTAG,1.17 z-score
TCAGATTTTGGTCTTTCACTGTGCTAG,0.747 z-score
GACGGTTTCCTTAGCCTGACGTGCTAG,4.65 z-score
TCAGTTTTAAATAGGGCACTGTGCTAG,1.09 z-score
GACGATTACAGTCTCGAGACGTGCTAG,0.482 z-score
ATCTTAATAAGGTTTCCAATCGTGCTA,3.12 z-score
TTAGATCTCAGTCACGATTAGTGCTAG,-0.028 z-score
GACGATATAGGGTATCGAGACGTGCTA,0.0101 z-score
TTAGGACTGGAGTTTCGGTTAGTGCTA,3.31 z-score
TCATACCTGAATATCTTACTGTGCTAG,0.415 z-score
GACGGTTTCCTTTCCCTTACGTGCTAG,10.4 z-score
TTAGGACTGGTCTATCGGTTAGTGCTA,-0.563 z-score

# Set 5 — technique: aptamer microarray, sandwich; molecule type: DNA with 2'F-ANA; matrix: in vitro; concentration: 200 nM; added: Cy3 exosite-II aptamer, 400 nM; direction: higher = stronger binding; sequence: GGTTGGTGTGGTTGG
# Target: Prothrombin, mature alpha-thrombin (F2, Homo sapiens, UniProt P00734)
# Setting: whole 15-mer aptamer, many near background
Modification,mean fluorescence intensity [a.u.]
2'F-ANA at 1 2 4 6 7 11 13 15,72
2'F-ANA at 1 3 7 8 9 10 13 15,116
2'F-ANA at 6 9 10 11 14,104
2'F-ANA at 4 6 8 9 12,571
2'F-ANA at 3 5 7 9 10 14 15,62.7
2'F-ANA at 2 4 5 7 8 9 11 13,63.4
2'F-ANA at 2 3 5 6 7 9 10 12 14,48.4
2'F-ANA at 4 5 6 10 12 13 14,58.2
2'F-ANA at 2 3 6 7 8 9 10 14,298
2'F-ANA at 2 8 9 12 13 14 15,170
2'F-ANA at 6 7 10 11 15,141
2'F-ANA at 3 4 8 9 10 11 12 13 14 15,185
2'F-ANA at 1 3 5 6 8 12,147
2'F-ANA at 2 3 4 8 10 12,415
2'F-ANA at 1 2 6 7 12 13 15,225
2'F-ANA at 5 6 7 9 11 12 14 15,73.3
2'F-ANA at 4 7 9 11 13 14,80.3
2'F-ANA at 1 2 4 5 6 7 8 9 10 11 13 15,51.1
2'F-ANA at 1 6 7 8 9 10 11 14 15,57.3
2'F-ANA at 3 4 7 9 11 12 13 14,368
2'F-ANA at 2 8 14 15,162
2'F-ANA at 2 7 9 10 11 14,83.8
2'F-ANA at 11 14 15,177

# Set 6 — technique: RNA Bind-n-Seq; molecule type: RNA; matrix: in vitro; concentration: 200 nM; setting: whole 134-nt RNA, ends assumed; added: 150 mM LiCl; baseline: input library; direction: higher = stronger binding; library: 7-deaza-guanosine replaces G
# Target: Ras GTPase-activating protein-binding protein 1, full length (G3BP1, Homo sapiens, UniProt Q13283)
# Chain of UniProt Q13283 (whole entry, looked up): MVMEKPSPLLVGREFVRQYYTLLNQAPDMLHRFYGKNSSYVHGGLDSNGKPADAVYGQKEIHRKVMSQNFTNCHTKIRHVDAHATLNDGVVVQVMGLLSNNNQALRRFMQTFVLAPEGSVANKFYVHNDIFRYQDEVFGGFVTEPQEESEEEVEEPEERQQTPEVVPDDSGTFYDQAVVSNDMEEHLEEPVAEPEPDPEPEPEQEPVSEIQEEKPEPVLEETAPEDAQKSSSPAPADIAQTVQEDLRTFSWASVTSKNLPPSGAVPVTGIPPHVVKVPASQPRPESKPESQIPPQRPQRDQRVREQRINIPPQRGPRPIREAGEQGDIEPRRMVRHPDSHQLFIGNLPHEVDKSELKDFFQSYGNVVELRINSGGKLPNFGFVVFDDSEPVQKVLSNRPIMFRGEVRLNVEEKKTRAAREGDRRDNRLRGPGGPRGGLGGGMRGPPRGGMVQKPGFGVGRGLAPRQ
Sequence,log2 enrichment
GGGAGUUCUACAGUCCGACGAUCUCUCAGCACCCUCGUGAAACUGGACAAGAAGCCAGUGGAGACCAACGGUCCUGAUGCCAAUCACGAGUACAGUACAAGCAGCCAGCAUAUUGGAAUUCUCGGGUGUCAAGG,-0.237
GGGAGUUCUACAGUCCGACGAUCUGGGAGGUGGAUUUUGUUUAUUUUUUUAGCUCAUUUCCAGGGGUGGGAAUUUUUUUUUAAUAUGUGUCAUGAAUAAAGUUGUUCUUGAAAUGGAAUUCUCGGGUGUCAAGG,-0.215
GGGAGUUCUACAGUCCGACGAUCAAGUCCUGUGCUACACAUCGUAUGUACCGAAUCGGGAAAAGGGGAAAAGGAAAAGGAAAGUAUUAUGUUACGCCGUUCGGAUCUGCACUUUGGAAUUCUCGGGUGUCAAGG,-0.0485
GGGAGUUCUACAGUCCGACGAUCCACAGACAACACGCACCCACACAGACACAGAGGGAAGGGGUUGGGAUGGGGACAGGGUGCACAGCAGGGCGGGGUAAAACCCCAGCCCCUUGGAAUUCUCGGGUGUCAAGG,1.08
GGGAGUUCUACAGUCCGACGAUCUAAUUUAGAUCUUAAAGAAAAAGUGGAGCCUGAGGUUCUCAGCACUGAUACCCAAACUUCCCCAGAGCCAGGCACAAGGAUGAACAUUCUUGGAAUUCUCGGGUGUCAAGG,1.02
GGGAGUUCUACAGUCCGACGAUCUGUGCUACACAUCGUAUGUACCGAAUCGGGCCCCCCCGGGGCCCCCCCGGGCCCCCCCGGGGAAAGUAUUAUGUUACGCCGUUCGGAUCUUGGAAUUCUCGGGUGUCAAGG,-0.9
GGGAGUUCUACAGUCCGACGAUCUUUCCAAGAAGUGCACUGAAAAUGACAUCCGAGUCAUGUUCUCUUCGUUUGGACAGAUUGAAGAAUGCCGGAUAUUGCGGGGACCUGAUGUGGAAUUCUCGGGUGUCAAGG,-0.757
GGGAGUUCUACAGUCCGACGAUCUCAAGUCCUGUGCUACACAUCGUAUGUACCGAAUCGGGAGGGUUUGGGAAAGGGAAAGUAUUAUGUUACGCCGUUCGGAUCUGCACUUCCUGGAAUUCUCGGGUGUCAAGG,0.0166
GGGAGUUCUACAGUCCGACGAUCCAAGUCCUGUGCUACACAUCGUAUGUACCGAAUCGGGGCCCGGCCCGGGGCCCGGAAAGUAUUAUGUUACGCCGUUCGGAUCUGCACUUCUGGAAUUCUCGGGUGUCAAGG,-0.717
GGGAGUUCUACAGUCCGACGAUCCAAGUCCUGUGCUACACAUCGUAUGUACCGAAUCGGUUUGGAAAGGAAAAAAAGGAAAGUAUUAUGUUACGCCGUUCGGAUCUGCACUUCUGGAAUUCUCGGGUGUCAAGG,-0.433
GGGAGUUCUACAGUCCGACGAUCGCAGGAAGUAGAAACAAAUGGAAAUGCUUCGGAUAGUGGCAGGGGUGGGGGUUGCUAAGGAAAGGGUGGGAUGGGAGUGGGUAAAGAGUUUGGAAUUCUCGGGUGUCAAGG,0.0115

# Repeated from above (set 1):
Sequence,E-score
GAGGTAAC,-0.0462
ACCAAACC,-0.071
ACGTCGTG,-0.00619
ACTTCATC,0.0825
GTGGGGAA,0.0247
AACTAAGC,-0.0307
ATCGGATC,-0.0673
CTTCAAGC,-0.195
AGGTGTGG,-0.243
AGGTAATC,0.192
CCATCTGC,-0.0242
